Published values of several laboratories.
Every numbered part comes from another study and shows a few of its results, in no order. Changes are numbered by the printed parent chain.

Block 1 — target: CCND3, cyclin fold, Cln2 fusion (human); method: yeast growth competition, sequencing; sample: yeast; setting: weak parent motif; baseline: not given; direction: higher = stronger binding
Starting sequence: MASTL docking peptide (human); PMIAKNLMCELDE
| Variant | normalised enrichment score |
| --- | --- |
| PMIAKNLMCEFDE [L11F] | -0.356 |
| PMIAKNNMCELDE [L7N] | -0.223 |
| PMIAKNLDCELDE [M8D] | -0.118 |
| PMIAKNLECELDE [M8E] | 0.0616 |
| PMIAKNLMCEEDE [L11E] | 0.0927 |
| PMIAKALMCELDE [N6A] | -0.223 |

Block 2 — method: universal PBM; form: double-stranded DNA, one strand shown; sample: in vitro; tested at: not given; direction: higher = stronger binding
Target: Sal-like protein 4, full length isoform B (SALL4, Homo sapiens, UniProt Q9UJQ4-2, residues 1-616)
Setting: 8-mer, flanks averaged, mean of replicates
Target sequence (chain): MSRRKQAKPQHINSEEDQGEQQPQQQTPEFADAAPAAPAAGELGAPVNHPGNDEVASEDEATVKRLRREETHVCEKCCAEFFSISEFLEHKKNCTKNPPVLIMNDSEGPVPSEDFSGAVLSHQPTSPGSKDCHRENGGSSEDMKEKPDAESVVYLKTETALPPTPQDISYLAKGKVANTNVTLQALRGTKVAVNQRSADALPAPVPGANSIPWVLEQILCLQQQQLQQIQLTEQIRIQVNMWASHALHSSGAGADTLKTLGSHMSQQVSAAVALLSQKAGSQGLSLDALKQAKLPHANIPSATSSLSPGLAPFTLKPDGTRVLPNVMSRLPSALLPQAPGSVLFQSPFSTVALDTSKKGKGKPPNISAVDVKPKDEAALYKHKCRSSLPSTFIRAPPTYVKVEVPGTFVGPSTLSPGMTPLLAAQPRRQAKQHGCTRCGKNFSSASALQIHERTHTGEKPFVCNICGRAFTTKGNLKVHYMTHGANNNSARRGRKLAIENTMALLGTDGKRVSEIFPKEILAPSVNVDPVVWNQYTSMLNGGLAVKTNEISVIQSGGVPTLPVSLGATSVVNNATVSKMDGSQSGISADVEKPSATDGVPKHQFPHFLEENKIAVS
| Strand | E-score |
| --- | --- |
| ACATCCAA | 0.0655 |
| AAGATTCC | 0.0841 |
| CCCCCACC | -0.345 |
| CCGCAACC | -0.258 |
| AACGGACC | -0.19 |
| ACTTAAAG | 0.0756 |

Block 3 — method: protein binding microarray; form: double-stranded DNA, one strand shown; sample: in vitro; tested at: not given; baseline: not given; direction: higher = stronger binding
Target: Histone acetyltransferase KAT6A, both winged helices, GST fusion (KAT6A, Homo sapiens, UniProt Q92794, residues 1-181)
Setting: 8-mer, flanks averaged, mean of 2 arrays, mostly near background
Target sequence (chain): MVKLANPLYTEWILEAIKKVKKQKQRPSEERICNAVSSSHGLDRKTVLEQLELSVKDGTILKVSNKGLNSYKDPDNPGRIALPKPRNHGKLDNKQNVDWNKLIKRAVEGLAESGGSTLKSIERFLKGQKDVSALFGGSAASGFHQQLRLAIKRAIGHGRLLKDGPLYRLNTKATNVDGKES
| Strand | E-score |
| --- | --- |
| ATATAAAC | 0.0449 |
| GATTAGAA | -0.196 |
| ACAATTGT | 0.0314 |
| AAAGATTA | -0.00308 |
| CACCAAAA | -0.145 |
| ATCGGGTG | 0.123 |

Single results of other studies
| Molecule | target | assay | system | setting | scale | endpoint | value |
| --- | --- | --- | --- | --- | --- | --- | --- |
| PhoQ, residues 284 288 289 292 302 303 NLMGRA | PhoP, residues 12 14 15 18 19 LHSVW (Escherichia coli, UniProt P23836) | Sort-seq, refers to: YFP reporter | E. coli | PhoQ-PhoP variant library, with: 10 µM Mg2+ | baseline: high Mg2+ state, higher = stronger signaling | fold induction | 6.27 |

Some of these lines once more (block 3):
| Strand | E-score |
| --- | --- |
| ACAATTGT | 0.0314 |
